Measured values pooled from the literature.
Each numbered part is a random draw from the data of one study; scales do not carry over between parts.

Sample 1 — method: RNA Bind-n-Seq; form: RNA; sample: in vitro; concentration: 200 nM; setting: whole 134-nt RNA, ends assumed; added: 150 mM KCl; baseline: input library; reading: higher = stronger binding
Target: Ras GTPase-activating protein-binding protein 1, full length (G3BP1, Homo sapiens, UniProt Q13283)
UniProt Q13283, sequence (whole entry, looked up): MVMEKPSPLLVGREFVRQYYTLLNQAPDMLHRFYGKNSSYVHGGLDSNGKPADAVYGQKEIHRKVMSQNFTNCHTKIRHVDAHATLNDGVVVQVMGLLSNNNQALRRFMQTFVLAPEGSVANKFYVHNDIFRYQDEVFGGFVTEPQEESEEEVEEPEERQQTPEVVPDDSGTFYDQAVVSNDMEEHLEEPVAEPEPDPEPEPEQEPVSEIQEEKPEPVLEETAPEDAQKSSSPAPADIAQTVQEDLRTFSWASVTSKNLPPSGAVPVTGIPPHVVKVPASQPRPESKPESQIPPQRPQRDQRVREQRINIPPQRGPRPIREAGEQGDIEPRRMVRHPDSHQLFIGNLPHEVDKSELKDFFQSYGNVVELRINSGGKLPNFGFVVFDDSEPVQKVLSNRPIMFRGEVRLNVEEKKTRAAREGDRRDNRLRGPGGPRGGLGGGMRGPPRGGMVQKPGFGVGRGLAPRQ
Constant ends, left off below: GGGAGUUCUACAGUCCGACGAUC … UGGAAUUCUCGGGUGUCAAGG
`GCAGGAAGUAAAAACAAAUGGAAAUGCUUCGGCUAGUGGCAGGGGUGGGGGUUGCUAAGGAAAGGGUGGGAUGGGAGUGGGUAAAGAGUU` gave a log2 enrichment of 0.97.
With `UUCAUUCCCAAGGGAGGCCAUGUCUGGAGAUAGACCUUGAAUUUAAUAAAUUUUAGGCACUAUACCAUUUCAGUGGAGAAAAUUGUUGGG` the log2 enrichment was -1.71.
For `UCAAGUCCUGUGCUACACAUCGUAUGUACCGAAUCGGUUUGGUUUGGUUUUUGGAAAGUAUUAUGUUACGCCGUUCGGAUCUGCACUUCC`, the log2 enrichment was -0.717.
With `GUCCUGUGCUACACAUCGUAUGUACCGAAUCAAACCCCCCCAAACCCCCAAAUUUAAAAAAGUAUUAUGUUACGCCGUUCGGAUCUGCAC` the log2 enrichment was -0.159.
With `CAAGUCCUGUGCUACACAUCGUAUGUACCGAAUCGGGGAAAGGGGAAAGGAAAGGAAAGUAUUAUGUUACGCCGUUCGGAUCUGCACUUC` the log2 enrichment was -0.414.

Sample 2 — method: RNA Bind-n-Seq; form: RNA; sample: in vitro; concentration: 20 nM; setting: 6-mer, flanks averaged, single round; added: 150 mM LiCl; baseline: input library; reading: higher = stronger binding
Target: TAR DNA-binding protein 43, full length, His tag (TARDBP, Homo sapiens, UniProt Q13148, residues 1-414)
For `UUGAAG`, “6-mer enrichment (R)” read 1.02.
Under “6-mer enrichment (R)”, `UGCUAC` is recorded as 0.886.
Under “6-mer enrichment (R)”, `GAGAUU` is recorded as 0.932.
Under “6-mer enrichment (R)”, `CUUCCA` is recorded as 0.862.
Under “6-mer enrichment (R)”, `AUAGUG` is recorded as 1.11.

Sample 3 — method: protein-binding microarray; form: double-stranded DNA, one strand shown; sample: in vitro; concentration: 250 nM; setting: 60-bp whole probe; added: salmon DNA 0.4 mg/ml; baseline: random background probes; reading: higher = stronger binding
Target: Interferon regulatory factor 7, full length, phosphomimetic (IRF7, Homo sapiens, UniProt Q92985, residues 1-503, S101K/S471D/S472D/S475D/S476D/S477D/S483D/S484D/S487D)
Target sequence (chain): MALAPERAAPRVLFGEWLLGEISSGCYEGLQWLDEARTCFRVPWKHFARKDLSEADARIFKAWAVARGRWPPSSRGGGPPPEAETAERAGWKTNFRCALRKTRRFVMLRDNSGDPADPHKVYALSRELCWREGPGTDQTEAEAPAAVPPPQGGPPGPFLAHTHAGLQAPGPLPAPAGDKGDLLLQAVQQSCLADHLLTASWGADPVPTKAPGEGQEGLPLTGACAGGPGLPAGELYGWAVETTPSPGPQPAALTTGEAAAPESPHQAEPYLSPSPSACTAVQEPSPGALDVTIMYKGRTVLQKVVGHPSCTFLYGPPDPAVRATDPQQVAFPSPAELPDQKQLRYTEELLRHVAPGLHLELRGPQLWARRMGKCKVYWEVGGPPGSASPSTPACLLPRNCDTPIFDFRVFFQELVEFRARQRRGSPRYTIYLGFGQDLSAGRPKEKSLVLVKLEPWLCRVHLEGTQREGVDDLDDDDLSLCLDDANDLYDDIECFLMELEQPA
For `GCCTAGCACTTAGATCTCAGTCTCGATTGGTGCTAGGTCTTGATTCGCTTGACGCTGCTG`, the log fluorescence was 1.87 z-score.
With `GCCTAGCACTTAGGACTGGGTATCGGTCAGTGCTAGGTCTTGATTCGCTTGACGCTGCTG` the log fluorescence was -0.00338 z-score.
The log fluorescence of `GCCTAGCACGACGGACTGGGGTATCGGAACGTGCTAGTCTTGATTCGCTTGACGCTGCTG` is reported as -0.789 z-score.
`GCCTAGCACGACGGTTTCCTCCTGCTGACGTGCTAGGTCTTGATTCGCTTGACGCTGCTG` gave a log fluorescence of 1.46 z-score.

Mixed results
`PhoQ, residues 284 288 289 292 302 303 AQGLTV` gave a fold induction of 0.61 (PhoP, residues 12 14 15 18 19 TPWLV (Escherichia coli, UniProt P23836); Sort-seq, item: YFP reporter; E. coli; PhoQ-PhoP variant library, added: 10 µM Mg2+; baseline: high Mg2+ state, higher = stronger signaling).

Repeated from above (sample 2):
For `UUGAAG`, “6-mer enrichment (R)” read 1.02.
Under “6-mer enrichment (R)”, `CUUCCA` is recorded as 0.862.
